Measured values of several laboratories.
Each line is one published result; not all experiments were run side by side. Numbers after ± are the reported error.

For N=C(N)NCCC[C@@H]1NC(=O)[C@H](Cc2csc3ccccc23)NC(=O)[C@@H](Cc2ccccc2)NC(=O)[C@H](Cc2ccccc2)NC(=O)[C@H](CCC(=O)NCCOCCOCC(=O)N[C@@H](CCCCNC(=O)c2ccc3c(c2)C(=O)OC32c3ccc4cc(O)ccc4c3Oc3c2ccc2cc(O)ccc32)C(N)=O)NC(=O)[C@@H](CCCNC(=N)N)NC(=O)[C@H](CCCNC(=N)N)NC(=O)[C@@H](CCCNC(=N)N)NC1=O, the cellular uptake was 84 ± 10% (HeLa; flow cytometry; 2.0 µM, 2 h, 1% FBS; reference: CPP12).
CC(=O)Oc1ccc(Cn2cc(C)c(=O)[nH]c2=O)cc1C1OC(c2cccc(Cl)c2)=NN1C(C)=O (centres unmarked): “minimum cytotoxic concentration” 100 µM (HEL fibroblasts; cell morphology, microscopy).
Cc1cc2c(c(=O)o1)C=C1CCC(C(C)CNCc3ccc(O)cc3)CC1O2 (centres unmarked) gave a TD50 of 49.5 µM (MC65; low serum).
CCCCn1cc(C(=O)O)c(=O)c2cc(F)c(Nc3ccccc3Cl)c([N+](=O)[O-])c21 gave an IC50 of 118 ± 22.2 µg/mL (SW-620; cell growth, SRB; 72 h).
With COc1cccc(N(C)C(=O)Oc2cc3oc4cc5c(c(O)c4c(=O)c3c(CC=C(C)C)c2OC)C=CC(C)(C)O5)c1 the inhibition was 0% (PC-12; cell proliferation, MTT; 10 µM, 24 h).
Under cell proliferation, CCNS(=O)(=O)c1ccc(COc2ccc3nc4ccc(=O)cc-4oc3c2)cc1 is recorded as “no effect” (MCF-10A; 1 µM).
With Oc1ccccc1/C=C/c1ccc2ccccc2n1 the cytotoxicity ratio was 22.5 (U-937; concentration not given, 72 h; reference: compound over benznidazole).
The IC50 of CC=C(C)C(=O)OC1C(O)C2OC(COC(=O)CCC(=O)CCCCCCC(CCCCC)OC3OC(C)C(O)C(O)C3O2)C1OC(=O)C=Cc1ccccc1 (centres unmarked) is reported as 0.131 µM (MDA-MB-231; cytotoxicity).
Under “minimum cytotoxic concentration”, CC(=O)Oc1ccc(Cn2cc(F)c(=O)[nH]c2=O)cc1C1OC(c2ccccc2)=NN1C(C)=O (centres unmarked) is recorded as > 100 µM (HEL fibroblasts; cell morphology alteration).
The viability of CC(C)C1=CC2=C(C=O)C[C@@H]3[C@](C)(CCC[C@@]3(C)C(=O)OCC#CCN3CCOCC3)[C@H]2CC1 is reported as 103% (BHK-21-hACE2; 20.0 µM, 48 (unit not given)).
The inhibition of COc1ccnc(Nc2c3c(nc4cc(C)ccc24)CCCC3)c1 is reported as -9.57 ± 0.28% (HepG2; MTT; 50 µM, 24 h, 10% FBS).
CC(=O)Oc1ccc(Cn2cc(F)c(=O)[nH]c2=O)cc1C1OC(c2cccc(Cl)c2)=NN1C(C)=O (centres unmarked) — result for “minimum cytotoxic concentration”: ≥ 100 µM (HEL fibroblasts; cell morphology alteration).
O=C(/C=C/c1ccc(-c2ccccc2)cc1)N[C@@H]1O[C@H](CO)[C@@H](O)[C@H](O)[C@H]1O: “minimal cytotoxic concentration” > 100 µM (HEL fibroblasts; cell morphology; 3 days).
For C=Cc1c(C)c2cc3nc(c(CC(=O)O)c4[nH]c(cc5nc(cc1[nH]2)C(C)=C5CC)c(C)c4C(=O)O)[C@@H](CCC(=O)NCCCC[C@H](NC(C)=O)C(=O)N[C@@H](Cc1ccccc1)C(=O)N[C@@H](Cc1ccccc1)C(=O)N[C@H](C(=O)N[C@@H](CC(C)C)C(=O)N[C@@H](CCCCN)C(=O)N[C@@H](CO)C(=O)NCC(=O)N[C@@H](CCC(N)=O)C(=O)NCC(=O)N[C@@H](Cc1ccc(O)cc1)C(=O)N[C@@H](CCCNC(=N)N)C(=O)N[C@@H](Cc1c[nH]c2ccccc12)C(=O)N[C@@H](CC(=O)O)C(=O)N[C@@H](CO)C(=O)N[C@@H](Cc1ccc(O)cc1)C(=O)N[C@@H](CCCNC(=N)N)C(=O)N[C@@H](Cc1c[nH]c2ccccc12)C(=O)N[C@@H](Cc1c[nH]cn1)C(=O)N1CCC[C@H]1C(=O)N[C@@H](CO)C(=O)N[C@@H](CS)C(=O)N[C@@H](C)C(=O)N[C@@H](CS)C(=O)NCC(=O)NCC(=O)N[C@@H](CO)C(=O)N[C@@H](CCCCN)C(N)=O)C(C)C)[C@@H]3C, cytotoxicity read “not toxic” (LLC; CCK-8; 1 to 200 µM, 24 h).
Cc1ccc2c(Nc3ccc4ccccc4n3)c3c(nc2c1)CCCC3 has an inhibition of -10.1 ± 0.5% (HepG2; MTT; 50 µM, 24 h, 10% FBS).
CCCCCCCCCCOc1c(O)cc(C(=O)OC2Cc3c(O)cc(O)cc3OC2c2cc(O)c(O)c(O)c2)cc1O (centres unmarked) has a cell death of 13.9% (U-87 MG; CCK-8; 50 µM, 24 h).
With CCOc1cccc(N(C)C(=O)Oc2cc3oc4cc5c(c(O)c4c(=O)c3c(CC=C(C)C)c2OC)C=CC(C)(C)O5)c1 the inhibition was 0% (PC-12; cell proliferation, MTT; 10 µM, 24 h).
The IC50 of CCCCn1cc(C(=O)O)c(=O)c2cc(F)c3c(nnn3-c3ccccc3Cl)c21 is reported as 128 µM (HCT-116; cell growth or viability, SRB).
The inhibition of COc1ccc(Nc2c3c(nc4cc(C)ccc24)CCCC3)nc1 is reported as -11.4 ± 0.57% (HepG2; MTT; 50 µM, 24 h, 10% FBS).
Under “minimal cytotoxic concentration”, CCc1ccc([C@H](C)CC(=O)NC(=O)N[C@@H]2O[C@H](COC(C)=O)[C@@H](OC(C)=O)[C@H](OC(C)=O)[C@H]2OC(C)=O)cc1 is recorded as > 100 µM (HEL fibroblasts; cell morphology; 3 days).
CC(=O)N[C@@H](CC(=O)O)C(=O)N[C@@H](CCC(=O)O)C(=O)N[C@H](C(=O)N[C@@H](CC(=O)O)C(=O)NCC(=O)NCC(=O)NCC(=O)NCCNC(=O)OCC1c2ccccc2-c2ccccc21)C(C)C gave a cellular uptake of 0.4 fmol/cell (HepG2; 200 µM, 2 h, 37 °C, 10% FBS).
Under cytotoxicity, NCCCC[C@H](NC(=O)[C@H](Cc1ccc(O)cc1)NC(=O)[C@H](CCCCN)NC(=O)[C@H](Cc1c[nH]c2ccccc12)NC(=O)[C@H](Cc1ccccc1)NC(=O)[C@H](Cc1ccccc1)NC(=O)Cc1ccc(-c2ccccc2)cc1)C(=O)NCC(=O)N[C@@H](Cc1c[nH]cn1)C(=O)N1CCC[C@H]1C(=O)NCC(=O)NCC(=O)N1CCC[C@H]1C(=O)N[C@@H](CCC(N)=O)C(=O)N[C@@H](CC(=O)O)C(=O)N[C@@H](CC(=O)O)C(=O)N[C@@H](CC(=O)O)C(=O)N[C@@H](CC(=O)O)C(=O)N[C@@H](CC(=O)O)C(=O)N[C@@H](CC(=O)O)C(=O)O is recorded as “not toxic” (mouse bone marrow macrophages; CCK-8; concentration not given, 24 h).
Under “median lethal concentration”, CCNCC1=C(O)C(=O)c2ccccc2C1=O is recorded as ≥ 4320 µM (BGM (monkey kidney); MTT; 10% FCS; 24 h).
Cc1ccc(NCCN(C)CCNc2ccnc3cc(Cl)ccc23)c2c(=O)c3ccccc3sc12 has a viability reduction of < 20% (Vero E6; cytotoxicity; 30.0 µM, 72 (unit not given)).
Under “minimal cytotoxic concentration”, O=C(CCCc1ccc2c(c1)CCCC2)N[C@@H]1O[C@H](CO)[C@@H](O)[C@H](O)[C@H]1O is recorded as > 100 µM (HEL fibroblasts; cell morphology; 3 days).
CC=C(C)C(=O)OC1C2COC(=O)CCC(=O)CCCCCCC(CCCCC)OC3OC(C)C(OC(C)=O)C(O)C3OC(O2)C(O)C1OC(=O)C(C)=CC (centres unmarked) has an IC50 of 4.5 µM (MDA-MB-231; cytotoxicity).
For N=C(N)NCCC[C@@H](NC(=O)[C@H](N)Cc1c[nH]c2ccccc12)C(=O)N[C@H](CCCCN)C(=O)N[C@H](Cc1c[nH]c2ccccc12)C(=O)N[C@H](CCCNC(=N)N)C(=O)N[C@H](CCCCN)C(=O)N[C@H](Cc1c[nH]c2ccccc12)C(=O)N[C@H](CCCNC(=N)N)C(=O)N[C@H](CCCCN)C(=O)N[C@H](Cc1c[nH]c2ccccc12)C(=O)N[C@H](CCCNC(=N)N)C(=O)N[C@H](CCCCN)C(N)=O, the hemolysis was < 5% (mouse red blood cells; 2048 µM).
Under “minimum cytotoxic concentration”, CC(=O)Oc1ccc(Cn2ccc(=O)[nH]c2=O)cc1C1OC(c2cccc(Cl)c2)=NN1C(C)=O (centres unmarked) is recorded as 100 µM (HEL fibroblasts; cell morphology, microscopy).
CCCCn1cc(C(=O)O)c(=O)c2cc(F)c(Nc3ccccc3Cl)c(N)c21 gave an IC50 of 22.8 ± 2.76 µg/mL (SW-620; cell growth, SRB; 72 h).

Repeated from above:
The IC50 of CC=C(C)C(=O)OC1C(O)C2OC(COC(=O)CCC(=O)CCCCCCC(CCCCC)OC3OC(C)C(O)C(O)C3O2)C1OC(=O)C=Cc1ccccc1 (centres unmarked) is reported as 0.131 µM (MDA-MB-231; cytotoxicity).
Under “minimum cytotoxic concentration”, CC(=O)Oc1ccc(Cn2cc(F)c(=O)[nH]c2=O)cc1C1OC(c2ccccc2)=NN1C(C)=O (centres unmarked) is recorded as > 100 µM (HEL fibroblasts; cell morphology alteration).
The viability of CC(C)C1=CC2=C(C=O)C[C@@H]3[C@](C)(CCC[C@@]3(C)C(=O)OCC#CCN3CCOCC3)[C@H]2CC1 is reported as 103% (BHK-21-hACE2; 20.0 µM, 48 (unit not given)).
